Measurements gathered from unrelated publications.
A part holds a random share of what one study measured. Changes are numbered by the printed parent chain.

Sample 1 — technique: RNA Bind-n-Seq; form: RNA; sample: in vitro; tested at: 365 nM; baseline: no-protein control; reading: higher = stronger binding
Target: RNA binding protein fox-1 homolog 2, RRM domain, GST-SBP tag (RBFOX2, Homo sapiens, UniProt O43251-10, residues 100-194)
Notes: natural RNA segment, single round, ends assumed
All sequences stand within: GGGAGUUCUACAGUCCGACGAUC … UGGAAUUCUCGGGUGCCAA
Target sequence (chain): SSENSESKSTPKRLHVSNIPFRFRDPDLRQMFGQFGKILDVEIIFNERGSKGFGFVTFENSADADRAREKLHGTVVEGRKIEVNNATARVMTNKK
`UGGCUUCAAAUCCUUUGGGAAGGGUGACUGUUGUUUCCCCUACACACAGUGUAAGCCGGAAUGGGAAUCGCUGAGGCUCUGAUCCACUUCUAAGACAGGAAGGAAAGUGA`: “RBNS enrichment (R)” 0.467.
For `ACCAAGACUGAAAGAGGCAAGGUCUCCUUGCCUCGGCCCAGUGAUCAUGACAGGAAUGAACCCAAACUCAGAACAAUAAAAUCAAUUCUGUGCUCCCCACGCGGGGCUUG`, “RBNS enrichment (R)” read 0.287.
`GACUUCUCAGUGUUGGUGCUGUGUCUGUUAGAGCCUUAGAGCAAGUUAAGCACUUCCUUGGUGUGGGUAAAGAAUAAAGGGGAAAGAAACUACUUUAGAGCCUCUUUUUC` — result for “RBNS enrichment (R)”: 0.777.
Under “RBNS enrichment (R)”, `AUUACUAAGAAACACAUCAAAUAAACUGACUUUUUCCCCCCAAUAAAAGCUCUUCUUUUUUAAUAUAUAAAAGCCCCUUCCCAAGGAGUUUGCUGUGGAAAUGUGUUUGG` is recorded as 0.7.
Under “RBNS enrichment (R)”, `UGUCUGAGAGGCGUGAAGGGCCUGGAGCCACUCUGCUAGAAGAGACCAAUAAAGGGCAGGUGUGGAACGGCCAGCCUGUGUGUGUGUUCUUUGACAGAGGGCGGAGGGAA` is recorded as 0.756.
Under “RBNS enrichment (R)”, `UAUGAGUAAGAAAUUGCAAUUUUGUAAACAUUCCUCGACUUGGUGGGGAGGAAUAAUUUUAUAAUUGCAUUUCCAGGUAUUUUUCAAGAUUACGAAAAUAUGCUACUCUG` is recorded as 0.794.
`AUUAGCUGAGUUUAGAGUACUUUCUGCUUAAUUAAUUUUUAUACUUAACUCUUCAGUAGAGGUUUACAAAGAGUACAAAGGUUAAAUUACAAAUUCAUUCCCAGCCUAGG` — result for “RBNS enrichment (R)”: 0.539.
`AGCUCUUUUAAUUGGUGACAGAUCAUGCGGUAUGUCCCUAUUACAAAUGUAAGUCUUGGAGAAGGGUCCUUCAUGGUGUCCACAUGUGCAGGCUCAGGUAGAGGUCUCAG`: “RBNS enrichment (R)” 0.287.
For `GUAGCUCAGUCAUAUUGAACAGGGAGGUGGGGAUGCUGUUGAUGGGCUGUUAAAUCGGAAAGGAUGUGGCUUCAGUGCCCUCAGGAACCCUUAGGCUCCAAAAAUUUGCC`, “RBNS enrichment (R)” read 1.32.
`UAAAUGUCUUGCUUACAGUGGUGUUGCCCCGACUCCAGAUCAGCCUGGGCCACCUUGGGAAGCCAUCCUUGAGGCCCUUGCUCCAAUAGGAGAGGUAUUGUGGAUUCACA` — result for “RBNS enrichment (R)”: 0.259.
Under “RBNS enrichment (R)”, `UGUGCAGUCUCACCAUUUGCAUCACUGAGGAUGAAACUGACUUUUGUCUUUUGGAGAAAAAAAACUGUACUGCUUGUUCAAGAGGGCUGUGAUUAAAAUCUUUAAGCAUU` is recorded as 0.563.
Under “RBNS enrichment (R)”, `UAAGCUACUGAUUUGGAUUUGUUUUAUCGUAUCCUAAAGUCUUUGUUGUUGAAAUGAAAGGUAUUUUGGGGUUAUUUAUUAUGAAAACAACAUGCUCUUAAUGUUGAUUU` is recorded as 0.344.

Sample 2 — target: CCNE2, cyclin fold, Cln2 fusion (human); technique: yeast growth competition, sequencing; sample: yeast; notes: weak parent motif; baseline: not given; reading: higher = stronger binding
Parent: AKAP12 docking peptide (human); GSPLKKLFTSTGL
Under “normalised enrichment score”, `ASPLKKLFTSTGL [G1A]` is recorded as 0.767.
For `GSPLKKLFTSTAL [G12A]`, “normalised enrichment score” read -0.372.
For `GSPLKKLFTATGL [S10A]`, “normalised enrichment score” read 0.5.
`GSPLKKLLTSTGL [F8L]`: “normalised enrichment score” 0.191.
For `GSPLKKLATSTGL [F8A]`, “normalised enrichment score” read 0.161.
Under “normalised enrichment score”, `GSPLKALFTSTGL [K6A]` is recorded as -0.0107.
`GSPLAKLFTSTGL [K5A]` — result for “normalised enrichment score”: -0.303.

Sample 3 — technique: protein binding microarray; form: double-stranded DNA, one strand shown; sample: in vitro; tested at: not given; baseline: not given; reading: higher = stronger binding
Target: Histone acetyltransferase KAT6A, both winged helices, GST fusion (KAT6A, Homo sapiens, UniProt Q92794, residues 1-181)
Notes: 8-mer, flanks averaged, mean of 2 arrays, mostly near background
Residues (chain): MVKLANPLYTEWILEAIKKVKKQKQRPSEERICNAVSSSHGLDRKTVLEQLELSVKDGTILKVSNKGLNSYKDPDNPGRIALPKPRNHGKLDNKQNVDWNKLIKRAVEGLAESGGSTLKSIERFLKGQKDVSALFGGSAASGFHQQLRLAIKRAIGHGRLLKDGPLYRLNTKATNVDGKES
`GTTGCGCA` has an E-score of 0.158.
For `CTATGTTC`, the E-score was -0.0425.
`GTTATAAA` gave an E-score of -0.0974.
The E-score of `GACGCTCA` is reported as 0.118.
`AGTCACTG` has an E-score of -0.0269.
For `GTAGACAC`, the E-score was -0.00902.
`AGCAGATC` has an E-score of -0.252.
`ACATGACG` has an E-score of 0.168.
With `ACCCATAC` the E-score was -0.236.
For `TATCAATA`, the E-score was -0.067.
With `CGGGCTTA` the E-score was 0.145.
With `CCACAGTA` the E-score was -0.0924.
`ATTGGTGC` gave an E-score of -0.0168.
For `ACGAGTAC`, the E-score was -0.114.
For `ACTATTGA`, the E-score was -0.119.
With `GGCACCGA` the E-score was 0.0722.
`AATGCCTA` gave an E-score of -0.168.
For `ACGTCCTG`, the E-score was -0.0948.
The E-score of `CATGTAGC` is reported as 0.0284.

Other studies, line by line
The fold induction of `PhoQ, residues 284 288 289 292 302 303 TTCLQL` is reported as 8.17 (PhoP, residues 12 14 15 18 19 TQAIL (Escherichia coli, UniProt P23836); Sort-seq, measured: YFP reporter; E. coli; PhoQ-PhoP variant library, added: 10 µM Mg2+; baseline: high Mg2+ state, higher = stronger signaling).
